Published values gathered from unrelated publications.
A part holds a random share of what one study measured.

Study 1
Target: RNA binding protein fox-1 homolog 2, RRM domain, GST-SBP tag (RBFOX2, Homo sapiens, UniProt O43251-10, residues 100-194)
Technique: RNA Bind-n-Seq
Molecule type: RNA
Sample: in vitro
Concentration: 365 nM
Notes: natural RNA segment, single round, ends assumed
Baseline: no-protein control
Direction: higher = stronger binding
Shared flanks, not repeated: GGGAGUUCUACAGUCCGACGAUC … UGGAAUUCUCGGGUGCCAA
Target sequence (chain): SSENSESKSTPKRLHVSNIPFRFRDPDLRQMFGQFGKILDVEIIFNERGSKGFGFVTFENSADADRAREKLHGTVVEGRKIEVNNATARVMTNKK
| Sequence | RBNS enrichment (R) |
| --- | --- |
| ACCACUAGUAAGCUUUGUUCAUGCAGCUCAUAGUCCUCCCAAACAUAUGGGGAAUGUGUGUUUAUGUACCAGAUGGGGAGUGUUGAGGGGAUAUGGUGGCUCUGUGAUCU | 5.84 |
| UGACAAGAAGAAGAACAAGUGCUUGUUAGGUGAGAGCAUUUCUUGCCUCCUAUUCACCCUGAACCUGGAGGCUAGACCUGAGGGAGUCGGACUGAGGGAUUGCAGAUGGG | 0.993 |
| GGACAACACUAACACAGGACCCUUGUUGCUACCUGGUUCUGACUCCAGACAACCACAAUGCCAGGUACGGGGUCUCUGAGCAGCAGCCAGUGCAGAUCCCCAUUUGCAGU | 0.378 |
| UUUUACCAGAACCCUUCUGCAAUGCCUCCUGCAUAGGUCCCAAGAUGUGUAGCGAUCCAUCCCUGGUUAGCAAUUCCAUCAAUUUCUUGCAUAUUAUCCUCCCAGGACAU | 0.579 |
| ACCCCUUUCAUGGAAACGGUGUCUGGGGCAGAUAAACAUUGGGUACCUUCACUGUUUUGAGGGGGGCUGAGACAAGACACCCCCGCUUCUAGGUAUCUUCUAGAGCAGUG | 0.339 |
| AGGAUGAGAGUUAUACUCCUGUUGUCAAGGGAGUAUUGUGUGGUAUGUUCGGGGCAUAUUGAACAAGAAACCACUGUGUGGUAUGGGGAGGGUUGGGCCUGUUGGGGCCA | 3 |
| AUAUUUCAAUUGACAAACCAGCAGGACAUAUGAAAAAUGCUUCAGUGAUGUGGUCCAUUAUAAGAUAAGUACACAAAAAUUUUCUUGAAAAAUAUUGUAUGAUUGCAUAG | 0.544 |
| GGGUCCAGAUGGCUGUCAGGAAGAUGACAAGGUAGGGAGGUAAGGACCGUGUUUGGAGGCUUCUGGUAUCCUAAACACCAAGAUCCACUCAGCCCUGUGCCCUGAUGAUG | 0.446 |

Study 2
Target: Replicase polyprotein 1ab, main protease (rep, Severe acute respiratory syndrome coronavirus 2, UniProt P0DTD1)
Observed: enzyme activity
Mode: inhibitor
Concentration: 20 µM
Notes: primary screen
| SMILES | inhibition [%] |
| --- | --- |
| CC1(C)C(/C=C/C=C/C=C/C=C2/N(CCCCS(=O)(=O)O)c3ccc4ccccc4c3C2(C)C)=[N+](CCCCS(=O)(=O)[O-])c2ccc3ccccc3c21 | 65.5 |
| CO/N=C(\C(=O)N[C@@H]1C(=O)N2C(C(=O)O)=C(CSC(=O)c3ccco3)CS[C@H]12)c1csc(N)n1.Cl | 83.8 |
| COc1cc(C(=S)N2CCOCC2)ccc1O | 100 |
| O=C(c1ccc(Cl)cc1)c1cc([N+](=O)[O-])ccc1N1CCOCC1 | 63.2 |
| CC(C)=CCC/C(C)=C/CC/C(C)=C/CC/C(C)=C/CC1=C(C)C(=O)c2ccccc2C1=O | 26.3 |

Study 3
Target: Ras GTPase-activating protein-binding protein 1, full length (G3BP1, Homo sapiens, UniProt Q13283)
Chain of UniProt Q13283 (whole entry, looked up): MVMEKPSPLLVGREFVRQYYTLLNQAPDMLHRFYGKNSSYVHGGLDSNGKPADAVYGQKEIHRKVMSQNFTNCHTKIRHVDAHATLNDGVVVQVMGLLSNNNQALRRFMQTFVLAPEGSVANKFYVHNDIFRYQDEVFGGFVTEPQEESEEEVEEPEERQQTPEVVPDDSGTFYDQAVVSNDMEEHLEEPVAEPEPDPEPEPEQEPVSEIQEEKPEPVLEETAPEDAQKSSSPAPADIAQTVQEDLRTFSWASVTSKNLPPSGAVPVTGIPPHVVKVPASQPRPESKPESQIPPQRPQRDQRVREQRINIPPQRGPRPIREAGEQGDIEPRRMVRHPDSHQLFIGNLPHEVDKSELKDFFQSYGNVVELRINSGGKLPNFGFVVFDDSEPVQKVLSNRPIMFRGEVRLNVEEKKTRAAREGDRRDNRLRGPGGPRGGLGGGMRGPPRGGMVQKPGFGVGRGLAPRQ
Technique: RNA Bind-n-Seq
Molecule type: RNA
Sample: in vitro
Concentration: 200 nM
Notes: whole 134-nt RNA, ends assumed
With: 150 mM KCl
Baseline: input library
Direction: higher = stronger binding
Shared flanks, not repeated: GGGAGUUCUACAGUCCGACGAUC … UGGAAUUCUCGGGUGUCAAGG
| Sequence | log2 enrichment |
| --- | --- |
| AAGUCCUGUGCUACACAUCGUAUGUACCGAAUCGGAAAAAGGAAAGGUUUUUUUGGAAAGUAUUAUGUUACGCCGUUCGGAUCUGCACUU | -1.7 |
| UCCUGUGCUACACAUCGUAUGUACCGAAUCGGGGCCCCCGGGCCCCCGGGGCCCCCGGGGAAAGUAUUAUGUUACGCCGUUCGGAUCUGC | -0.717 |
| UUAAGAAUAUUUAGAUAUUUGUAAAAGAAUUUGAAUGAUUUAUUUAAUAUAACGUUUAUUUUAUUAGCUCUAUUCCAAUUGAUUACAACC | -1.78 |
| UGGACUGCCUAUGGAAGAAGAAGUUCAAGAAGGAGCACGAGGAGUUUGAGACCAUGGAGAACGUGAACCGCCUUCUUCUGGAGAACGUCC | -0.554 |
| CCUCAAGUCCUGUGCUACACAUCGUAUGUACCGAAUCGGGUGGGUGGGUGGGGAAAGUAUUAUGUUACGCCGUUCGGAUCUGCACUUCCA | 1.25 |
| AGUCCUGUGCUACACAUCGUAUGUACCGAAUCGGCCCCCCGGCCCCCCGGCCCCCCGGAAAGUAUUAUGUUACGCCGUUCGGAUCUGCAC | -0.0269 |
| UGGGAGGUGGAUUUUGUUUAUUUUUUUAGCUCAUUUCCAGGGGUGGGAAUUUUUUUUUAAUAUGUGUCAUGAAUAACGUUGUUUUUGAAA | 0.123 |
| AGUCCUGUGCUACACAUCGUAUGUACCGAAUCGGGAGGGAAAAAAAGGGAAAAAGGGAAAGUAUUAUGUUACGCCGUUCGGAUCUGCACU | -0.052 |

Study 4
Target: Replicase polyprotein 1ab, nsp13 helicase (rep, Severe acute respiratory syndrome coronavirus 2, UniProt P0DTD1)
Mode: inhibitor
Concentration: 20 µM
| SMILES | inhibition |
| --- | --- |
| O=c1[nH]c2ccccc2c(=O)n1CCCN1CCN(c2ccccc2)CC1 | -1.35% |
| Cc1nc(N)sc1-c1ccnc(Nc2ccc(N3CCOCC3)cc2)n1 | 10.5% |
| COc1ccccc1Oc1c(NS(=O)(=O)c2ccc(C)cn2)nc(-c2ccncc2)nc1OC | -3.06% |
| CC(C)c1cc(CNc2nc(Nc3cc(C4CC4)[nH]n3)cc(N3CCN(C)CC3)n2)on1 | 12.5% |
| COc1cc(C#N)ccc1S(=O)(=O)Nc1ccc2c(c1)cc(C)c(=O)n2C | 0.72% |
| Cc1ncc(CO)c(CO)c1O | 7.07% |
| COc1cc(OC)cc(-c2ccc3c(-c4ccc(F)cc4)[nH]nc3n2)c1 | -1.05% |
| CCOC(=O)c1ccc(O)cc1 | 0.89% |
| N#Cc1c(N2C[C@@H]3NCCO[C@H]3C2)c(F)cc2c(=O)c(C(=O)O)cn(C3CC3)c12 | 3.26% |
| Cn1c(COc2ccc(CC3SC(=O)NC3=O)cc2)nc2ccccc2c1=O (centres unmarked) | 7.71% |
| CN1Cc2c(N)cccc2C(c2ccccc2)C1 (centres unmarked) | 3.23% |
| O=C(CCn1cnc2c(=O)[nH]cnc21)Nc1ccc(C(=O)O)cc1 | -0.17% |
| CCCCC(CC)COc1ccc(-c2nc(-c3ccc(OC)cc3)nc(-c3ccc(OCC(CC)CCCC)cc3O)n2)c(O)c1 (centres unmarked) | 6.08% |
| COc1cc(C(=O)NCCCCCC(=O)O)cc(OC)c1OC | 1.54% |
| CN(C)CCCSC(=N)N | -2.69% |
| O=C(NCc1ccc(OC(F)(F)F)cc1)C1c2ccccc2C(=O)N1C1CCOCC1 (centres unmarked) | 13.5% |
| COc1ccccc1C(=O)Nc1cccc(NC(=O)c2cccc(C)c2)c1 | -7.21% |
| N[C@@H](CSS(=O)(=O)O)C(=O)O | 3.84% |
| Cc1cccc(C)c1NC(=O)C(C)N (centres unmarked) | 5.64% |
| CN(C)C/C=C(/c1ccc(Br)cc1)c1cccnc1 | 0.44% |
| N[C@@H](Cn1ccc(=O)n(Cc2ccccc2C(=O)O)c1=O)C(=O)O | 8.17% |
| NS(=O)(=O)c1cc2c(cc1C(F)(F)F)NC(Cc1ccccc1)NS2(=O)=O (centres unmarked) | 0.78% |
| CNC(=O)c1cccc(-c2ccc3c(N4CCOC[C@@H]4C)nc(N4CCOC[C@@H]4C)nc3n2)c1 | 1.69% |
| Cc1nc(C#Cc2ccnc(Cl)c2)c(C)n1-c1ccc(OC(F)(F)F)cc1 | 99.6% |
| C[C@H](Nc1ncnc2[nH]cnc12)c1nc2ccc(F)cc2c(=O)n1-c1ccccc1 | 3.51% |

Study 5
Cell line: HEK-293T/ACE2
Concentration: concentration not given
Time: 16 (unit not given)
Baseline: vehicle
| Compound | viability [%] |
| --- | --- |
| O=[N+]([O-])O[C@H]1CO[C@H]2[C@@H]1OC[C@H]2O[N+](=O)[O-] | 101 |
| CC(=O)OCC(=O)[C@@]12OC(C)(C)O[C@@H]1C[C@H]1[C@@H]3C[C@H](F)C4=CC(=O)C=C[C@]4(C)[C@@]3(F)[C@@H](O)C[C@@]12C | 103 |
| CCCc1nc2c(C)cc(-c3nc4ccccc4n3C)cc2n1Cc1ccc(-c2ccccc2C(=O)O)cc1 | 101 |
| CN(Cc1cnc2nc(N)nc(N)c2n1)c1ccc(C(=O)N[C@@H](CCC(=O)O)C(=O)O)cc1 | 88.3 |

Study 6
Target: Protein C-ets-1 (ETS1, Homo sapiens, UniProt P14921, residues 1-441, Y397A, full length assumed)
Technique: protein-binding microarray
Molecule type: double-stranded DNA, one strand shown
Sample: in vitro
Concentration: not given
Notes: k-mer, scored over probes, only values ≥0.25
Direction: higher = stronger binding
Residues (chain): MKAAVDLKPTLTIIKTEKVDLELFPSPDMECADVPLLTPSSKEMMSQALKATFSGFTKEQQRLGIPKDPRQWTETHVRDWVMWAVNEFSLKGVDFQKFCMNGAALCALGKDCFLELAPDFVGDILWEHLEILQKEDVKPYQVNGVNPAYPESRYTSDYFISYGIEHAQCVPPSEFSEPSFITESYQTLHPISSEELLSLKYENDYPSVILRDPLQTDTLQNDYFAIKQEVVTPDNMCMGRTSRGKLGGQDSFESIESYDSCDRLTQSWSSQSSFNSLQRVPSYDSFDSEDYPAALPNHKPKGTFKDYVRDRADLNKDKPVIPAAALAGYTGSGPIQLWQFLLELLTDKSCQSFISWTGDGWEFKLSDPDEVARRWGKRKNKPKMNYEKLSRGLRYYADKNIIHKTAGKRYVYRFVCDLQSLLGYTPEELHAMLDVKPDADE
| Sequence | E-score |
| --- | --- |
| ACACACCA | 0.325 |
| GTGCAAAC | 0.28 |
| ACGGAAAT | 0.315 |
